# Results of several laboratories.
# Protocols differ between the studies behind these lines. ± marks the error that the study gave.
SMILES,assay,test system,conditions,how to read,measurement,value
C1CCc2c(c(N3CCOCC3)nc3sc4c(N5CCNCC5)nnnc4c23)C1,,"Swiss albino mice, male","intravenous, 3 mg/kg",,plasma clearance,325 mL/min/kg
Nc1nc2c(ccc3ccccc32)s1,,"mouse, plasma","intraperitoneal, 10 mg/kg, 24 h",,free plasma concentration,300 nM
COc1cccc2c1C(=O)c1c(O)c3c(c(O)c1C2=O)C[C@@](O)(C(=O)CO)C[C@@H]3O[C@H]1C[C@H](N)[C@H](O)[C@H](C)O1,,"mouse, E0771 tumour-bearing, plasma","intravenous, 92 µmol/kg",,AUC,11.3 µM·h
C/C=C/C=C/C=C\CC/C=C/C=C/C(=O)NCC(C)C,,"human ileostomy patients, ileal effluent","oral, 5 g TU-100, 4 h, no β-glucuronidase treatment",,"amount recovered, maximum",139000 ng
CN/C(=N/CCSCc1nc[nH]c1C)NC#N,,human small intestinal microtissues,"10 µM, 2 h",,Papp,1.9 ± 0.2 ×10⁻⁶ cm/s
CCCCCCCCCCCCCNCC(=O)N(CC(=O)N(CCCCN)CC(=O)N(CCN)CC(=O)N(CC(N)=O)Cc1ccco1)Cc1ccco1,preparative RP-HPLC C18,water to acetonitrile gradient,0.05% TFA in eluent,higher = more hydrophobic,acetonitrile at elution,67.6%
COc1ccc(-n2nc(C(N)=O)c3c2C(=O)N(c2ccc(N4CCCCC4=O)cc2)CC3)cc1,,healthy Chinese subjects,"oral, 10 mg twice daily, 12 h, day 9",,Cmin,116 ng/mL
CN[C@@H]1[C@H](O)[C@H](NC)[C@H]2O[C@]3(O)[C@H](O[C@@H]2[C@H]1O)O[C@H](C)C[C@H]3NC(=O)Cc1ccc(O)cn1,glutathione conjugation,human liver S9,"100 µM, 2 h, pH 7.4, together with: glutathione 0.2 mM",,parent remaining,99.9%
CC(=O)c1c(C)c2cnc(Nc3ccc(N4CCNCC4)cn3)nc2n(C2CCCC2)c1=O,,"paediatric patients, plasma",oral,,mean half-life,~15.6 h
CC1(C)C(/C=C/C=C/C=C/C=C2\N(CCCCS(=O)(=O)O)c3ccc4ccccc4c3C2(C)C)=[N+](CCCCS(=O)(=O)[O-])c2ccc3ccccc3c21,integrating sphere,glucose solution,"5% DMSO for RGD conjugate, excitation 780 nm",,fluorescence quantum yield,1.5 ± 0.04%
Cc1cccc(C)c1OCC(=O)N[C@@H](Cc1ccccc1)[C@@H](O)C[C@H](Cc1ccccc1)NC(=O)[C@H](C(C)C)N1CCCNC1=O,pyrene fluorescence,phosphate buffer with HPMCAS,"pH 6.5, 37 °C",,amorphous solubility,17 µg/mL
COc1c(C)c2c(c(O)c1C/C=C(\C)CCC(=O)O)C(=O)OC2,,"stable kidney transplant recipients, plasma","oral, dose not given, 12 h post-dose, steady state, together with: cyclosporine",,trough concentration,2030 ± 1500 ng/mL
CN(c1ccccc1)c1nccc(-c2cnn3ncccc23)n1,,human liver microsomes,,,CLint,450 µL/min/mg
[2H]C([2H])([2H])Oc1cc2c(cc1OC([2H])([2H])[2H])C1CC(=O)C(CC(C)C)CN1CC2 (centres unmarked),refers to: deuterated β-HTBZ,"healthy human volunteers, plasma","oral, 18 mg single dose, standard meal",,dose-normalized Cmax,0.9 ng/mL
O=C1Nc2ccc(C(=O)N3CCOCC3)cc2C(=O)CCc2ccccc21,nephelometry,aqueous buffer,"30 min, pH 6.5",,kinetic solubility,> 100 µg/mL
Cc1nc2cccc(OCC(C)(C)C(=O)NC(C)C)c2c(N)c1C(=O)O,,"female Sprague-Dawley rat, plasma","oral food admix, 100 mg/kg/day, day 7, 90-day dietary study",,AUC(0-24 h),1170 ng·h/mL
CCCOc1ccc([C@H]2CNC(=O)N2c2ccc3[nH]cnc3c2)cc1,,"human volunteers fasted, plasma","oral tablet, 1800 mg single dose, day 1, geometric mean",,AUC(0-tlast),32200 ng·h/mL
Cn1c(-c2ccc(C(N)=O)cc2F)nnc1C(C)(C)Oc1c(F)cc(Cl)cc1F,,"young Japanese subjects, plasma","oral, 50 mg single dose, day 1",,AUC(0-inf) mean,7880 ng·h/mL
CCc1nc(C(N)=O)c(Nc2ccc(N3CCC(N4CCN(C)CC4)CC3)c(OC)c2)nc1NC1CCOCC1,,"human, moderate hepatic impairment, plasma","oral, 10 mg, single dose, fasted, geometric LS mean",,AUC(0-480 h),316 ng·h/mL
CCOc1ccc(Cc2cc([C@@H]3S[C@H](CO)[C@@H](O)[C@H](O)[C@H]3O)c(OC)cc2C)cc1,,"human, plasma","oral, 5 mg/day, day 7, multiple dose before breakfast",,elimination rate constant,1.86e-05 ± 3.31e-06 s⁻¹
C=CC(=O)Nc1cc(Nc2nccc(-c3cn(C)c4ccccc34)n2)c(OC)cc1N(C)CCN(C)C,,"Sprague-Dawley rat, male, plasma","oral, 10 mg/kg, together with: avitinib 30 mg/kg single dose on day 7",,MRT(0-inf),11.3 ± 0.88 h
COc1cccc(-c2ccc(NC(=O)C3=C(C(=O)O)CCC3)c(F)c2)c1,,"human, male, fasted, plasma","oral, 30 mg, single dose, geometric mean",,AUC(0-t),130000 ng·h/mL
CC(=O)Nc1ccc(O[C@@H]2O[C@H](C(=O)O)[C@@H](O)[C@H](O)[C@H]2O)cc1,,"healthy volunteers, both sexes, plasma","oral, dose not given, day 6, together with: favipiravir, extended",,AUC(0-12 h),98300 ng·h/mL
CCCC[C@H](NC(C)=O)C(=O)N[C@H]1CCC(=O)NC[C@@H](C(=O)N[C@@H](Cc2c[nH]c3ccccc23)C(N)=O)NC(=O)[C@H](CCCNC(=N)N)NC(=O)[C@@H](Cc2ccccc2)NC(=O)[C@H](Cc2c[nH]cn2)NC1=O,,"CD Sprague Dawley rat, female, plasma","subcutaneous, 1.0 mg/kg daily, day 1",,Vd/F,1.19 L/kg
N=C(N)NC(=O)c1cnn(-c2cccc3ncccc23)c1C1CC1,,"Sprague-Dawley rat liver S9, male","1 µM, together with: hydralazine 50 µM, no NADPH",,CLint,9.7 ± 1.9 mL/min/kg
Cc1c(C(=O)NN2CCCCC2)nc(-c2ccc(Cl)cc2Cl)n1-c1ccc(OS(=O)(=O)CCC(F)(F)F)cc1,LC-MS/MS,"cynomolgus monkey, plasma","intravenous infusion, 0.3 mg/kg, 90 min, during PET",,plasma concentration,55 nM
Cc1nc(-c2ccc(OCC(C)C)c(C#N)c2)sc1C(=O)O,,"adults with gout, plasma","oral, 80 mg, together with: verinurad 15 mg",,AUC(0-24),6600 ng·h/mL
COc1c(OCCCN2CCOCC2)ccc2c1N=C(NC(=O)c1cnc(N)nc1)N1CCN=C21,,"human, solid tumours, plasma","intravenous, 0.8 mg/kg, cycle 1 day 1",,AUC(0-tlast),2920 ng·h/mL
Nc1nc2c(ncn2COCCO)c(=O)[nH]1,,excised rabbit cornea,"1 mM, 3 h, pH 7.4, together with: BCH 5 mM",,Papp,2.03 ± 0.42 ×10⁻⁶ cm/s
N#C[C@]1(CO)O[C@@H](n2cnc3c(=O)[nH]c(N)nc32)C[C@@H]1O,,"male Sprague-Dawley rat, plasma","oral, 1 mg/kg, together with: entecavir 1 mg/kg",,t1/2,1.18 ± 0.33 h
CCCC[C@@H]1NC(=O)[C@@H](NC(=O)[C@H](CCC(=O)O)NC(=O)CNC(=O)CN2CCN(CC(=O)O)CCN(CC(=O)O)CCN(CC(=O)O)CC2)CCCCNC(=O)C[C@@H](C(N)=O)NC(=O)[C@H](C(C)C)NC(=O)[C@@H]2CCCN2C(=O)[C@H](CCCNC(=N)N)NC(=O)CNC(=O)[C@H](Cc2c[nH]c3ccccc23)NC(=O)[C@H](CCCNC(=N)N)NC(=O)[C@@H](Cc2ccccc2)NC(=O)[C@H](Cc2c[nH]cn2)NC(=O)[C@H](CCC(=O)O)NC1=O [indium-111 labelled],,"normal C57 mice, spleen","intravenous, 0.037 MBq, 24 h",,tissue uptake,0.04 ± 0.03 %ID/g
C=CC(N)CCC(=O)O (centres unmarked),,"male Sprague-Dawley rat, plasma","oral, 1.0 mg/kg, formulation 2, together with: infant formula 1500 mg/kg",,AUC(0-inf),1750 ± 59 ng·h/mL
CC(C)[C@H](N)C(=O)NCCCS(=O)(=O)O,,"human, plasma","oral, 340 mg capsule, day 14, fasted, multiple dosing",,AUC(0-12),13800 ± 3350 ng·h/mL
Cn1c(=O)n(C)c2cc(CNCCNc3ccnc4cc(Cl)ccc34)ccc21,,0.1 M sodium acetate with 0.01% Triton X-100,pH 5.5,,maximum solubility,300 µM
COCCOc1nc(N)c2nc(O)n(Cc3ccc(C(=O)NCCOCCOCCOCCOCCOCCOCCN=[N+]=[N-])cc3)c2n1,rapid equilibrium dialysis,dialyzed fetal bovine serum,,,unbound fraction,0.629
